Published values gathered from unrelated publications.
Lines come from different studies, so protocols differ. “And” joins repeats or separate records; there may be more than shown. ± marks the error that the study gave. Converted amounts (≈) assume the structure as drawn.

| SMILES | assay | system | conditions | how to read | measurement | result |
| --- | --- | --- | --- | --- | --- | --- |
| CN(C)C(=O)c1cc2cnc(Nc3ccc(N4CCNCC4)cn3)nc2n1C1CCCC1 | – | Japanese cancer patients, plasma | oral, 600 mg, steady state, no proton pump inhibitor, geometric mean | – | AUC(0-24h) | 55100 ng·h/mL |
| CN[C@H](CC(C)C)C(=O)N[C@H]1C(=O)N[C@@H](CC(N)=O)C(=O)N[C@H]2C(=O)N[C@H]3C(=O)N[C@H](C(=O)N[C@H](C(=O)O)c4cc(O)cc(O)c4-c4cc3ccc4O)[C@H](O)c3ccc(c(Cl)c3)Oc3cc2cc(c3O[C@@H]2O[C@H](CO)[C@@H](O)[C@H](O)[C@H]2O[C@H]2C[C@](C)(N)[C@H](O)[C@H](C)O2)Oc2ccc(cc2Cl)[C@H]1O | microdialysis | pig, Danish Landrace, cancellous bone | intravenous, 1000 mg over 100 min, 450 min dosing interval, with: 4.0 µg/mL MIC | reference: dosing interval | time above MIC | 66% |
| CC(C)=CCC[C@](C)(O[C@@H]1O[C@H](CO)[C@@H](O)[C@H](O)[C@H]1O)[C@H]1CC[C@]2(C)[C@@H]1[C@H](O)C[C@@H]1[C@@]3(C)CC[C@H](O)C(C)(C)[C@@H]3[C@@H](O[C@@H]3O[C@H](CO)[C@@H](O)[C@H](O)[C@H]3O[C@@H]3O[C@@H](C)[C@H](O)[C@@H](O)[C@H]3O)C[C@]12C | – | Sprague Dawley rat, male, plasma | oral, 45 mg/kg, in white ginseng extract | – | AUC(0-36 h) | 2200 ± 400 ng·h/mL |
| CC(C)NC[C@@H](C(=O)N1CCN(c2ncnc3c2[C@H](C)C[C@H]3O)CC1)c1ccc(Cl)cc1 | – | human, hepatic impairment Mild (Child-Pugh), plasma | oral, 100 mg single, geometric mean | – | AUC(0-72) | 261 ng·h/mL |
| CC(=O)c1ccc([C@H]2C[C@@]3(C)[C@@H](CC[C@@]3(O)C(F)(F)C(F)(F)F)[C@@H]3CCC4=CC(=O)CCC4=C32)cc1 | – | rat liver microsomes | 100 % absorption assumed | – | maximal oral bioavailability | 83% |
| Cn1c(-c2ccc(C(N)=O)cc2F)nnc1C(C)(C)Oc1c(F)cc(Cl)cc1F | – | young Japanese adults, plasma | oral, 50 mg single dose, day 1, high-dose multiple-dose study | – | Tmax median | 1.25 h |
| Cc1cc(C)c(/C=C2\C(=O)Nc3ccccc32)[nH]1 | – | male Sprague-Dawley rat, hypoxic pulmonary hypertension | subcutaneous, 20 mg/kg, 14 days post-hypoxia, 3 weeks hypoxia | – | right ventricular systolic pressure | 61.9 ± 6.1 mmHg |
| O=C(O)CC[C@H]1CC[C@@](c2cc(F)ccc2F)(S(=O)(=O)c2ccc(Cl)cc2)CC1 | ELISA | human, serum | dose not given | – | dalotuzumab trough serum concentration | no effect |
| C[C@]12CC[C@@H]3c4ccc(O)cc4CC[C@H]3[C@@H]1C[C@@H](O)[C@@H]2O | GC-MS | breast cancer women on NSAI, serum | vaginal, 0.03 mg, 2 h, day 0 | – | minimum serum concentration | 0 ng/mL |
| O=C1CN(/N=C/c2ccc(-c3ccc([N+](=O)[O-])cc3)o2)C(O)=N1 | – | Sprague-Dawley rat, male, liver | oral, 100 mg/kg, 24 h, single low dose | direction not given | hepatocyte necrosis score | 0 |
| CN1CC[C@@H](NC(=O)Nc2ccc(C#N)cc2)C[C@@H]1c1nc2ccccc2[nH]1 | – | healthy human volunteers | oral tablet vs intravenous, 100 mg oral, 50 mg intravenous | reference: dose-normalised AUC(0-inf) oral over intravenous | absolute oral bioavailability | 77.1% |
| COc1ccc(-c2cc(=O)c3cc(OC)c(OC)c(OC)c3o2)cc1OC | – | C57BL/6 mouse, male, plasma | oral, 1% w/w in diet, 6 weeks, orange peel extract diet | reference: content in orange peel | tissue to peel content ratio | 0.03% |
| COc1c(N2C[C@@H]3CCCN[C@@H]3C2)c(F)cc2c(=O)c(C(=O)O)cn(C3CC3)c12 | – | healthy human | oral, 400 mg single dose, 1.5 to 3 h | reference: baseline, time-matched | change in QTcI | 9.4 ms |
| CS/C(S)=N/CCCC[S+](C)[O-] (racemic) | RT-PCR | rat, liver | oral gavage, 200 mg/kg, four days, unit not given | reference: vehicle | mRNA level | 2.97 |
| COc1ccc2nc([S@@+]([O-])Cc3ncc(C)c(OC)c3C)[nH]c2c1 | – | human healthy | 40 mg, headache | – | adverse events | 0% |
| CNCc1ccc(-c2[nH]c3cc(F)cc4c3c2CCNC4=O)cc1 | – | human, plasma | oral, 600 mg twice daily, steady state, mean | – | AUC(0-12 h) | 16900 ng·h/mL |
| CC[C@H](C)[C@H](NC(=O)CNC(=O)[C@H](Cc1ccccc1)NC(=O)[C@H](Cc1ccccc1)NC(=O)[C@H](CCCNC(=N)N)NC(=O)[C@H](CCCNC(=N)N)NC(C)=O)C(=O)N[C@@]1(C)CCCC=CCCC[C@@](C)(C(=O)N[C@@H](CC(C)C)C(=O)N[C@@H](CCCCN)C(=O)N[C@H](C(=O)N[C@@H](CCC(=O)O)C(=O)N[C@@H](CCC(=O)O)C(=O)NCC(=O)N[C@@H](CC(N)=O)C(N)=O)[C@@H](C)O)NC(=O)[C@H](CC(N)=O)NC(=O)[C@H]([C@@H](C)O)NC(=O)[C@H](CC(C)C)NC1=O | circular dichroism | PBS with 50% trifluoroethanol | 0.3 mg/mL, pH 7.4, 25 °C | – | α-helicity | 33.8% |
| CC1=C2C[C@H]3[C@@H](CC[C@@H]4C[C@H](NS(C)(=O)=O)CC[C@@]43C)[C@@H]2CC[C@@]2(C1)O[C@@H]1C[C@H](C)CN[C@H]1[C@H]2C | – | patients, plasma | oral, 180 mg single, day -7, cycle 1 | – | Cmax | 106 ng/mL |

| SMILES | assay | system | conditions | how to read | measurement | result |
| --- | --- | --- | --- | --- | --- | --- |
| CNCc1ccc(-c2[nH]c3cc(F)cc4c3c2CCNC4=O)cc1 | – | human cancer patients, plasma | intravenous, 18 mg/m2, day 4, with: temozolomide 200 | – | clearance | 300 mL/min |
| COc1cc(CCC(C)=O)ccc1O | – | obese male C57BL/6J mice, brain | oral, 200 mg/kg | – | Tmax | 0.833 ± 0.167 h |
| CC(C)C[C@@H]1NC(=O)[C@H](C)NC(=O)[C@H](Cc2ccccc2)NCc2ccc([nH]2)CNC1=O | – | PAMPA | 100 µM, 17 h, pH 6.4 | – | Papp | 0.0191 ×10⁻⁶ cm/s |
| NC(=O)OCC(COC(N)=O)c1ccccc1 | – | Sprague-Dawley rat, male, liver | oral, 300 mg/kg, 24 h, single low dose | direction not given | hepatocyte vacuolization score | 0 |
| CCCC[C@H](NC(C)=O)C(=O)N[C@H]1CCC(=O)NC[C@@H](C(=O)N[C@@H](Cc2c[nH]c3ccccc23)C(N)=O)NC(=O)[C@H](CCCNC(=N)N)NC(=O)[C@@H](Cc2ccccc2)NC(=O)[C@H](Cc2c[nH]cn2)NC1=O | – | female rat, plasma | subcutaneous, 5 mg/kg/day, multiple doses, once daily | – | Cmax | 1000 ng/mL |
| CCN(CC)CCNC(=O)c1c(C)[nH]c(/C=C2\C(=O)Nc3ccc(F)cc32)c1C | – | human, plasma | 37.5 mg daily, 11 months | – | BNP level | 2300 pg/mL |
| CC(C)C[C@H](NC(=O)[C@H](CC(C)C)NC(=O)[C@@H](Cc1c[nH]c2ccccc12)NC(=O)[C@@H](NC(=O)[C@@H](Cc1c[nH]c2ccccc12)NC(=O)[C@@H](N)CCCCN)[C@H](c1ccccc1)c1c[nH]c2ccccc12)C(N)=O | RP-HPLC Kinetex Biphenyl | – | acetonitrile/water TFA gradient | – | HPLC retention | 47.5 %B |
| COc1cc2c(cc1OC)[C@@H]1Cc3ccc(OC)c(OC)c3CN1CC2 | – | rat plasma QC sample | 640 ng/mL nominal, 15 days, -80 °C, medium QC level storage stability | – | measured concentration | 632 ± 11.9 ng/mL |
| Cc1ccc(-c2ncc(Cl)cc2-c2ccc(S(C)(=O)=O)cc2)cn1 | – | patients after hip surgery, plasma | oral, 120 mg, subgroup | – | AUC(0-24h) | 22600 ng·h/mL |
| CN1CC[C@@H](NC(=O)Nc2ccc(C#N)cc2)C[C@@H]1c1nc2ccccc2[nH]1 | equilibrium dialysis | human, moderate hepatic impairment, plasma | 6 h after dose, arithmetic mean | – | unbound fraction | 0.08 ± 0.006 |
| CNC(=O)c1cc(Oc2ccc(NC(=O)Nc3ccc(Cl)c(C(F)(F)F)c3)c(F)c2)ccn1 | – | metastatic colorectal cancer patients, plasma | oral, 120 mg once daily, 5 days, with: esomeprazole 40 mg concomitant | – | AUC(0-24h) | 53700 ng·h/mL |
| Cc1cc(Nc2ncc(Cl)c(Nc3ccccc3S(=O)(=O)C(C)C)n2)c(OC(C)C)cc1C1CCNCC1 | measured: total drug | human, plasma | oral, 750 mg/day | – | Tss,max | 6 h and 8.1 h |
| COc1cc(O)c(C(=O)[C@@H]2[C@H](CC=C(C)C)C(C)=CC[C@H]2c2ccccc2)c(O)c1 | – | male Wistar rat | oral, 45 mg/kg, 0 to 72 h | reference: dose | unchanged excreted in faeces | ~22% |
| COC(=O)N[C@H](C(=O)N[C@@H](Cc1ccccc1)[C@@H](O)CN(Cc1ccc(-c2ccccn2)cc1)NC(=O)[C@@H](NC(=O)OC)C(C)(C)C)C(C)(C)C | modified PAMPA Franz cell | phosphate buffer with HPMCAS | stock 20 mg/mL, 3 h, 37 °C, 460 nm particles, 300 rpm, with: 3% BSA receiver | – | particle permeability | 22.9 ± 1.3 ×10⁻⁶ cm/s |
| FC(F)(F)c1cccc(Nc2ncnc3ccccc23)c1 | potentiometric, initial protocol | octanol/water, 0.15 M KCl | neutral species | – | logP | 4.32 |
| Cc1[nH]c(=O)c(CNC(=O)c2cc([N+](=O)[O-])co2)c2c1CCCC2 | U-HPLC | 20% DMSO in water | – | – | kinetic solubility | 178 µg/mL (≈ 538 µM) |
| CO[C@@H]1[C@H](O)[C@@H](CO)O[C@H]1n1ccc(=O)[nH]c1=O | UHPLC-MS | male CD-1 mice, plasma | intravenous, 1 mg/kg, from 4 h postdose | – | terminal half-life | 4.98 h |
| CC[C@H](C)[C@H](NC(=O)[C@H](CO)NC(=O)[C@H](Cc1ccc(O)cc1)NC(=O)[C@H](CC(=O)O)NC(=O)[C@H](CO)NC(=O)[C@@H](NC(=O)[C@H](Cc1ccccc1)NC(=O)[C@@H](NC(=O)CNC(=O)[C@H](CCC(=O)O)NC(=O)[C@H](C)NC(=O)[C@@H](N)Cc1ccc(O)cc1)[C@@H](C)O)[C@@H](C)CC)C(=O)N[C@@H](C)C(=O)N[C@@H](CCSC)C(=O)N[C@@H](CC(=O)O)C(=O)N[C@@H](CCCCN)C(=O)N[C@H](C(=O)N[C@@H](Cc1c[nH]cn1)C(=O)N[C@@H](CCC(N)=O)C(=O)N[C@@H](CCC(N)=O)C(=O)N[C@@H](CC(=O)O)C(=O)N[C@@H](Cc1ccccc1)C(=O)N[C@H](C(=O)N[C@@H](CC(N)=O)C(=O)N[C@@H](Cc1c[nH]c2ccccc12)C(=O)N[C@@H](CC(C)C)C(=O)N[C@@H](CC(C)C)C(=O)N[C@@H](C)C(=O)N[C@@H](CCC(N)=O)C(=O)N[C@@H](CCCCN)C(=O)NCC(=O)N[C@@H](CCCCN)C(=O)N[C@@H](CCCCN)C(=O)N[C@@H](CC(N)=O)C(=O)N[C@@H](CC(=O)O)C(=O)N[C@@H](Cc1c[nH]c2ccccc12)C(=O)N[C@@H](CCCCN)C(=O)N[C@@H](Cc1c[nH]cn1)C(=O)N[C@@H](CC(N)=O)C(=O)N[C@H](C(=O)N[C@H](C(=O)N[C@@H](CCC(N)=O)C(=O)O)[C@@H](C)O)[C@@H](C)CC)C(C)C)[C@@H](C)CC | – | human type 2 diabetes | intravenous infusion, 4 pmol/kg/min, 60 to 360 min | – | metabolic clearance rate | 8 ± 0.6 mL/min/kg |

A few entries again:
| SMILES | assay | system | conditions | how to read | measurement | result |
| --- | --- | --- | --- | --- | --- | --- |
| CC(C)NC[C@@H](C(=O)N1CCN(c2ncnc3c2[C@H](C)C[C@H]3O)CC1)c1ccc(Cl)cc1 | – | human, hepatic impairment Mild (Child-Pugh), plasma | oral, 100 mg single, geometric mean | – | AUC(0-72) | 261 ng·h/mL |
| CCN(CC)CCNC(=O)c1c(C)[nH]c(/C=C2\C(=O)Nc3ccc(F)cc32)c1C | – | human, plasma | 37.5 mg daily, 11 months | – | BNP level | 2300 pg/mL |
| CNC(=O)c1cc(Oc2ccc(NC(=O)Nc3ccc(Cl)c(C(F)(F)F)c3)c(F)c2)ccn1 | – | metastatic colorectal cancer patients, plasma | oral, 120 mg once daily, 5 days, with: esomeprazole 40 mg concomitant | – | AUC(0-24h) | 53700 ng·h/mL |
